{"data": "Measurements gathered from unrelated publications", "note": "Parts stem from different laboratories: compare values within a part only. Substitutions count along the parent as printed."}
{"data": "Series 1", "target": "RING finger protein unkempt homolog, zinc fingers 1-6, GST-SBP tag (UNK, Homo sapiens, UniProt Q9C0B0, residues 30-357)", "technique": "RNA Bind-n-Seq", "molecule type": "RNA", "matrix": "in vitro", "tested at": "not given", "notes": "RNA with constant flanks, human and mouse sites, ends assumed", "baseline": "input RNA pool", "reading": "higher = stronger binding", "constant ends, left off below": "GGGAGUUCUACAGUCCGACGAUC … CAACAGAGGAUUGAGCAUCA", "chain of UniProt Q9C0B0 (30-357, looked up)": "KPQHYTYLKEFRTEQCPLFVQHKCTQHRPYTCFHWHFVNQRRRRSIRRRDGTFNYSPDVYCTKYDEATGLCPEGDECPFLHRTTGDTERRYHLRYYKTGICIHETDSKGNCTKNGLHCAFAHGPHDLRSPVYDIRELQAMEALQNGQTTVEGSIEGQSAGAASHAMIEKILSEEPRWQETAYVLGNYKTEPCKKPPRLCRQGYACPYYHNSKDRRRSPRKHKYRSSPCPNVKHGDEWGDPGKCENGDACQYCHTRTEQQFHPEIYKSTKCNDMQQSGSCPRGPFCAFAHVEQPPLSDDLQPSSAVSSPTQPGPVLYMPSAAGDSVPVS"}
{"Sequence": "AAAAGCAACGACUUCGUAUGCCCCAUCUGCUUUGAUAUGAUUGAAGAAGCAUACAUGACAAAAUGUGGCCACAGCUUUUGCUACAAGUGUAUUCAUCAGAGUUUGGAGGACAAUAAUAGA", "bound/input enrichment [ratio]": 0.283}
{"Sequence": "GAUAUGGGCUAUAAUACUUUAGCCAACUUCCGAAUAGAAAAGAAAAUUGGUCGUGGACAAUUUAGUGAAGUUUAUAGAGCAUCCUGUCUCUUGGAUGGAGUGCCGGUAGCGUUAAAAAAA", "bound/input enrichment [ratio]": 44.5}
{"Sequence": "GUCAGUACACCAAGUUCUGGUCUGCUCAUGCUUCAUUGUCCAGAAAGCAGCAGGAAAUUGUAGUUCCGUUGUCAUCAAGCAGGAAGCAAAUGCAACACCGACCAAGGCAGUUUAGGUCAA", "bound/input enrichment [ratio]": 0.482}
{"Sequence": "UAAUAUGGGUUUUGACAAAUGUGUAAUGACAUUUGUCAACCGUUAUAGUAUUAUACAGAAUAAUUUCACUGCCUUAAAAAAUCCUCUGUGUUUUACUUAUUCAUCCCUCCCUCUCCUUUA", "bound/input enrichment [ratio]": 2.55}
{"Sequence": "UUGUUCUGAAAUUGCUGUACUGCAAUGAAGAAGAGGAGAAAGGUUACUUCAAAUCUUGAGAAGAUCCAUCUAGGCUAUCAUAAAGAUUCUUCAGAAGGAAAUGUUGCAGUGGAGUGUGAC", "bound/input enrichment [ratio]": 0.279}
{"Sequence": "GACAAAAAAGCAGAAAUUCUAAUUAACAAGACACAUAAGCAGCAGUUUAAUAAACUCAUUACUAGCCAGGCUGUGCAUGUUACAACUCAUUCUAAAAAUGCUUCACACAGGGUUCCAAGA", "bound/input enrichment [ratio]": 0.483}
{"Sequence": "AUUUGUUGGUGGGUUUGGGGGAACACAUCUCCUCCUGGCAUAUUUGAACACAUUCUCUUCCUCUUCGGCUGAUGUUCUGUCUUUGACCUCGUUCUUCUCCCGAGUUUUCACUGAGAGUCC", "bound/input enrichment [ratio]": 0.399}
{"Sequence": "GCACAUGAUUUGGGAAUUACACUUUGUGACAUGGAUGAAUCUGCACUGACCCUUGGUACAAUAGAUGUUUCUUAUCUGCCACAUUCAUCAGAAUACAGUGUUGGUCGAUGUAAGCACACA", "bound/input enrichment [ratio]": 0.241}
{"Sequence": "CUGAAGCCCAUGUUGCAGCGGGACUUUAUUACCGCUUUACCAGAGCAAGGCUUAGAUCACAUAGCAGAAAACAUUCUUUCGUACCUGGAUGCCAGGUCUCUGUGUGCAGCAGAGCUGGUA", "bound/input enrichment [ratio]": 0.792}
{"Sequence": "CCCAACCACUCUGUGGUGAAGCUGCAUGAUGCAGGUCAUGCCUGCUACCUCCACAAGCCAGAAGCCUUCCACCUCGCCCUUCUUGCCUUCCUUGACCAUUUGCCUUGAGUGGACUCACCU", "bound/input enrichment [ratio]": 0.321}
{"Sequence": "GCUAGAAAUGUGAGUACUUUAGAAAAAUCAGUUUUAGUGCCAAAUAAGGAAGCUGCUCUAGUGGUGACAUCUAAGAGGAGACCUACAAAGAAGUCUGCAGAGGAAAGCUCAAAAGAUCCA", "bound/input enrichment [ratio]": 1.59}
{"data": "Series 2", "target": "Sal-like protein 4, full length isoform B (SALL4, Homo sapiens, UniProt Q9UJQ4-2, residues 1-616)", "technique": "universal PBM", "molecule type": "double-stranded DNA, one strand shown", "matrix": "in vitro", "tested at": "not given", "notes": "8-mer, flanks averaged, mean of replicates", "reading": "higher = stronger binding"}
{"Sequence": "GTCAACCA", "E-score": 0.00933}
{"Sequence": "TTTATAAA", "E-score": 0.409}
{"Sequence": "CTTCAGTA", "E-score": -0.0725}
{"Sequence": "AAAGGCTC", "E-score": -0.098}
{"Sequence": "GGGGTCCA", "E-score": -0.338}
{"Sequence": "ACCCATAG", "E-score": -0.124}
{"Sequence": "CCGAACAG", "E-score": -0.082}
{"Sequence": "GCAGGGCA", "E-score": -0.165}
{"Sequence": "AGGTATCC", "E-score": -0.0272}
{"Sequence": "GGTATCCA", "E-score": -0.0205}
{"Sequence": "GCCGGCGA", "E-score": -0.364}
{"Sequence": "GTCCTGTA", "E-score": 0.00082}
{"Sequence": "GAGGGTCC", "E-score": -0.328}
{"Sequence": "TCGCGAAA", "E-score": -0.101}
{"Sequence": "CCTGCCTA", "E-score": -0.0528}
{"Sequence": "AAGGGGTG", "E-score": -0.237}
{"data": "Series 3", "target": "CCNE1, cyclin fold, Cln2 fusion (human)", "technique": "yeast growth competition, sequencing", "matrix": "yeast", "notes": "weak parent motif", "baseline": "not given", "reading": "higher = stronger binding", "parent": "MICAL3 docking peptide (human); LQLRRQLSFSEDS"}
{"Variant": "LQLRRILSFSEDS [Q6I]", "normalised enrichment score": 0.598}
{"Variant": "LQWRRQLSFSEDS [L3W]", "normalised enrichment score": 2.91}
{"Variant": "LQLRRQLSFSADS [E11A]", "normalised enrichment score": 0.625}
{"Variant": "LQLRRQLSFSKDS [E11K]", "normalised enrichment score": 0.438}
{"Variant": "LQLRSQLSFSEDS [R5S]", "normalised enrichment score": -0.12}
{"Variant": "LQLRCQLSFSEDS [R5C]", "normalised enrichment score": 0.193}
{"Variant": "LQLRRQLSFNEDS [S10N]", "normalised enrichment score": 0.922}
{"Variant": "LQLRRQLSFVEDS [S10V]", "normalised enrichment score": 0.575}
{"Variant": "LQLRRQLSFSGDS [E11G]", "normalised enrichment score": 0.793}
{"Variant": "LQLRRQISFSEDS [L7I]", "normalised enrichment score": 0.516}
{"data": "Series 4", "Substance": "PhoQ, residues 284 288 289 292 302 303 SLANIV", "technique": "Sort-seq", "refers to": "YFP reporter", "matrix": "E. coli", "notes": "PhoQ-PhoP variant library", "added": "10 µM Mg2+", "baseline": "high Mg2+ state", "reading": "higher = stronger signaling"}
{"target": "PhoP, residues 12 14 15 18 19 GMGLL (Escherichia coli, UniProt P23836)", "fold induction": 3.05}
{"target": "PhoP, residues 12 14 15 18 19 QQAYL (Escherichia coli, UniProt P23836)", "fold induction": 16.2}
{"target": "PhoP, residues 12 14 15 18 19 LFHKL (Escherichia coli, UniProt P23836)", "fold induction": 2.64}
{"note": "Excerpt of the above (series 4):"}
{"target": "PhoP, residues 12 14 15 18 19 LFHKL (Escherichia coli, UniProt P23836)", "fold induction": 2.64}
{"target": "PhoP, residues 12 14 15 18 19 GMGLL (Escherichia coli, UniProt P23836)", "fold induction": 3.05}
{"target": "PhoP, residues 12 14 15 18 19 QQAYL (Escherichia coli, UniProt P23836)", "fold induction": 16.2}
